{"data": "Results gathered from unrelated publications", "note": "Every numbered part comes from another study and shows a few of its results, in no order."}
{"data": "Series 1", "target": "RNA binding protein fox-1 homolog 2, RRM domain, GST-SBP tag (RBFOX2, Homo sapiens, UniProt O43251-10, residues 100-194)", "technique": "RNA Bind-n-Seq", "form": "RNA", "matrix": "in vitro", "tested at": "365 nM", "notes": "natural RNA segment, single round, ends assumed", "relative to": "no-protein control", "reading": "higher = stronger binding", "constant ends, left off below": "GGGAGUUCUACAGUCCGACGAUC … UGGAAUUCUCGGGUGCCAA", "Target sequence (chain)": "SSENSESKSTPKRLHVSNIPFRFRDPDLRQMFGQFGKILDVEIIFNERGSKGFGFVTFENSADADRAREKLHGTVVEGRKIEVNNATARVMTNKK"}
{"Sequence": "AAGGCGUCAACAGGGGGCUGGAGAGAUGGCUCAGGAGUUAAGAGCCCUGACUGCUCUUCCACAGGUCCUGAGUUCAAUUCCCAGCAACCACAUGGUGGUUCCCAACCAUC", "RBNS enrichment (R)": 0.301}
{"Sequence": "GUGGGCGGGGGCAAAGAGCCUACCAUCUCUGCCUGAGACAUCAGUUUAUACCAGACCAUUUUUACUAUGGAAUUUCAAGAGUUAAGGAUUGUCUUGGGAAACGUAGUCUA", "RBNS enrichment (R)": 0.639}
{"Sequence": "CUAUCCUGGGACCUCCCCAGCCCAGGAAAAACUGGAAGCCUUCCCCCAGCAAGGCAGAAGCUUGGAGGAGGGUUGUAAAAGCAUAUUGUACCCCCUCAUUUGUUUAUCUG", "RBNS enrichment (R)": 0.691}
{"Sequence": "UCAGUCUUUCCUUUGAAAAUCCAUAUAAAGUACAACUUUUAGCGUGAUUAUUUUCCUAAAUACAAAGACAAAUAAUUUACUUAUUUUAUGUUAAUUACGGGCAUGAAGCA", "RBNS enrichment (R)": 0.677}
{"Sequence": "GUGAAAUCAAAGAUUAUAGUCAUUGUAUAAUUUGGCUUGGAGGCUAUGAAAUGUCUUUUUUUCUUUUUGGUAUUUUACAUUAUUCACAUUUUAGAAUAACAAGAACACCA", "RBNS enrichment (R)": 0.606}
{"Sequence": "GCUUGAGUUGCCUUGUAGAGCUACUUGAAGACCCCAACAUAAGUGCUUCACUGAUCUUAAGUAUUAUCGGUUUGCUGUCUCAACUAGCAGUAGACAUUGAAACCAGAGAU", "RBNS enrichment (R)": 1.12}
{"Sequence": "GAUGGGGAGAAGUGAUUUCUUUCUUGCCUUCAAUGUGACCCUGUGAAGAUUUAUUGCAUUCUCCAUUUGUUAUCUGGGGACUUGUUAAAUAGAAACUGAAACUACUCUUG", "RBNS enrichment (R)": 0.314}
{"Sequence": "CAAAUACACAUUUUAUGCUAGAAAAAGUGUACUUAAUAGGAAUUAUUUUUGUUUUCCUAAAGAAAAUGCCUAAUAUAGAGAAAACAAUACAUAUCUUUACAGCUUAUUUG", "RBNS enrichment (R)": 6.14}
{"Sequence": "UACAGAACCAGCACUCCCAGGGCCCGAGCGCGUGCCUUCCCCGUGCGGCCCGUGCGCAGCCGCGCUCUGCCCCUCCGUCCCCAGGGUGCAGGCGCGCACCGCCCAACCCC", "RBNS enrichment (R)": 0.312}
{"Sequence": "ACACACUCGAUUAAAAAUGUUAAGCUAUCUGAAAAAUAAAAUGUGCAAGUCUUCAGGAUGGCACAAAACAAAGGUUAAUGCUUCUUGGGGCACAUUUCUUAGAGGGCUUG", "RBNS enrichment (R)": 0.611}
{"Sequence": "AGCGCUGUGCUACCAGUAGCUUUGGGGUUUUGGAAGCAGACACACCAAAGCCGAGCAUCAUAGAGAAUGAAUCCCUCUGGAAACACUUACUCUCAGAAAAUGACACUCUU", "RBNS enrichment (R)": 0.284}
{"data": "Series 2", "Molecule": "PhoQ, residues 284 288 289 292 302 303 AAQSYM", "technique": "Sort-seq", "measured": "YFP reporter", "matrix": "E. coli", "notes": "PhoQ-PhoP variant library", "with": "10 µM Mg2+", "relative to": "high Mg2+ state", "reading": "higher = stronger signaling"}
{"target": "PhoP, residues 12 14 15 18 19 LHHYF (Escherichia coli, UniProt P23836)", "fold induction": 12}
{"target": "PhoP, residues 12 14 15 18 19 VGHWL (Escherichia coli, UniProt P23836)", "fold induction": 3.24}
{"target": "PhoP, residues 12 14 15 18 19 TPWTL (Escherichia coli, UniProt P23836)", "fold induction": 1.17}
{"target": "PhoP, residues 12 14 15 18 19 NFFVT (Escherichia coli, UniProt P23836)", "fold induction": 12.9}
{"data": "Series 3", "target": "TAR DNA-binding protein 43, full length, His tag (TARDBP, Homo sapiens, UniProt Q13148, residues 1-414)", "technique": "RNA Bind-n-Seq", "form": "RNA", "matrix": "in vitro", "tested at": "20 nM", "notes": "6-mer, flanks averaged, single round", "with": "150 mM KCl", "relative to": "input library", "reading": "higher = stronger binding"}
{"Sequence": "UCAGCA", "6-mer enrichment (R)": 0.658}
{"Sequence": "CAGCGC", "6-mer enrichment (R)": 0.902}
{"Sequence": "AAACUA", "6-mer enrichment (R)": 0.609}
{"Sequence": "UGGUUU", "6-mer enrichment (R)": 0.746}
{"Sequence": "GAUUUC", "6-mer enrichment (R)": 0.558}
{"Sequence": "CGUUGU", "6-mer enrichment (R)": 0.704}
{"Sequence": "UCCCUU", "6-mer enrichment (R)": 0.667}
{"Sequence": "AUUCGA", "6-mer enrichment (R)": 0.572}
{"Sequence": "UAACAA", "6-mer enrichment (R)": 1.01}
{"Sequence": "GUCCUC", "6-mer enrichment (R)": 0.62}
{"Sequence": "UCGAAC", "6-mer enrichment (R)": 0.62}
{"Sequence": "UGAAGC", "6-mer enrichment (R)": 0.789}
{"Sequence": "AUCGUC", "6-mer enrichment (R)": 0.624}
{"data": "Series 4", "target": "Phosphate system positive regulatory protein PHO4, full length, GST-tagged (PHO4, Saccharomyces cerevisiae, UniProt P07270, residues 1-312)", "technique": "competition protein-binding microarray", "form": "double-stranded DNA, one strand shown", "matrix": "in vitro", "tested at": "2 µM", "notes": "whole 60-bp probe, lowest competitor level", "with": "Cbf1 competitor, 0.05 µM", "reading": "higher = stronger binding", "constant ends, left off below": "… GTCTTGATTCGCTTGACGCTGCTG", "Residues (chain)": "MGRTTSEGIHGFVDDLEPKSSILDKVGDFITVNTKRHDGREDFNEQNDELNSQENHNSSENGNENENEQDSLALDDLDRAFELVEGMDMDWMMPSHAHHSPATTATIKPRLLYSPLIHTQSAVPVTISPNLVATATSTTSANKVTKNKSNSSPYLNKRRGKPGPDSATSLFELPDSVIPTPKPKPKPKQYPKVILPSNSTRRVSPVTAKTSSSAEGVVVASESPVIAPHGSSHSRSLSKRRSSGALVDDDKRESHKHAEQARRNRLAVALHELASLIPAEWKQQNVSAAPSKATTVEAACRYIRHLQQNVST"}
{"Sequence": "CGTCCTAGTGATTGTAAGGTGGGTGCCATGAGGAAG", "fluorescence intensity [a.u.]": 8770}
{"Sequence": "TCTGGGAGAGCCTGTCAGATGACGAATCAGAAGACA", "fluorescence intensity [a.u.]": 2780}
{"Sequence": "AGTGTGGTCTTGGCTCTCGTGCCAGCTGCCTCCGTA", "fluorescence intensity [a.u.]": 6090}
{"Sequence": "CAATTACTGAAGCTTCACGTGCCAGAACGTAAAAAT", "fluorescence intensity [a.u.]": 15500}
{"Sequence": "CTAACGAAGGTTTGATGCGTGGGTGACAAGCCAAGT", "fluorescence intensity [a.u.]": 8660}
{"Sequence": "CATACCCAACCTTGCCGCGTGGGTGAAGATATTTGT", "fluorescence intensity [a.u.]": 13400}
{"Sequence": "CTTTCGCTGGAAAAGCACGTCCTCGCTAAGAAATTT", "fluorescence intensity [a.u.]": 6700}
{"Sequence": "GTTCGGTCCAGAGACTTCGTGATGGGCCTGAGGTGG", "fluorescence intensity [a.u.]": 4630}
{"Sequence": "TCCAGACGCTGTGGACACGTTAGACATCACCCTTGT", "fluorescence intensity [a.u.]": 6570}
{"Sequence": "ATTACTTGTTGCCATCACGATACTGGCATCCGATAG", "fluorescence intensity [a.u.]": 5580}
{"Sequence": "CGGGAAATATTTCAGCATGTGATGTGGCTGAAAATT", "fluorescence intensity [a.u.]": 9370}
{"Sequence": "CTAACGAAGGTTTGAAGGGTGGGTGACAAGCCAAGT", "fluorescence intensity [a.u.]": 4310}
{"Sequence": "CAGCGGATTCCCGAGCACATGGAGTCGCTGAACGGC", "fluorescence intensity [a.u.]": 9150}
{"note": "Repeated from above (series 1):"}
{"Sequence": "GUGGGCGGGGGCAAAGAGCCUACCAUCUCUGCCUGAGACAUCAGUUUAUACCAGACCAUUUUUACUAUGGAAUUUCAAGAGUUAAGGAUUGUCUUGGGAAACGUAGUCUA", "RBNS enrichment (R)": 0.639}
{"Sequence": "CUAUCCUGGGACCUCCCCAGCCCAGGAAAAACUGGAAGCCUUCCCCCAGCAAGGCAGAAGCUUGGAGGAGGGUUGUAAAAGCAUAUUGUACCCCCUCAUUUGUUUAUCUG", "RBNS enrichment (R)": 0.691}
{"Sequence": "UCAGUCUUUCCUUUGAAAAUCCAUAUAAAGUACAACUUUUAGCGUGAUUAUUUUCCUAAAUACAAAGACAAAUAAUUUACUUAUUUUAUGUUAAUUACGGGCAUGAAGCA", "RBNS enrichment (R)": 0.677}
{"Sequence": "GUGAAAUCAAAGAUUAUAGUCAUUGUAUAAUUUGGCUUGGAGGCUAUGAAAUGUCUUUUUUUCUUUUUGGUAUUUUACAUUAUUCACAUUUUAGAAUAACAAGAACACCA", "RBNS enrichment (R)": 0.606}
